Assay results of several laboratories.
Several values in a cell are separate wells, animals, samples, runs or records. ± gives the spread as reported.
Tln1: Tln1 309-405 (Mus musculus, UniProt P26039)
Chain of UniProt P26039 (whole entry, looked up): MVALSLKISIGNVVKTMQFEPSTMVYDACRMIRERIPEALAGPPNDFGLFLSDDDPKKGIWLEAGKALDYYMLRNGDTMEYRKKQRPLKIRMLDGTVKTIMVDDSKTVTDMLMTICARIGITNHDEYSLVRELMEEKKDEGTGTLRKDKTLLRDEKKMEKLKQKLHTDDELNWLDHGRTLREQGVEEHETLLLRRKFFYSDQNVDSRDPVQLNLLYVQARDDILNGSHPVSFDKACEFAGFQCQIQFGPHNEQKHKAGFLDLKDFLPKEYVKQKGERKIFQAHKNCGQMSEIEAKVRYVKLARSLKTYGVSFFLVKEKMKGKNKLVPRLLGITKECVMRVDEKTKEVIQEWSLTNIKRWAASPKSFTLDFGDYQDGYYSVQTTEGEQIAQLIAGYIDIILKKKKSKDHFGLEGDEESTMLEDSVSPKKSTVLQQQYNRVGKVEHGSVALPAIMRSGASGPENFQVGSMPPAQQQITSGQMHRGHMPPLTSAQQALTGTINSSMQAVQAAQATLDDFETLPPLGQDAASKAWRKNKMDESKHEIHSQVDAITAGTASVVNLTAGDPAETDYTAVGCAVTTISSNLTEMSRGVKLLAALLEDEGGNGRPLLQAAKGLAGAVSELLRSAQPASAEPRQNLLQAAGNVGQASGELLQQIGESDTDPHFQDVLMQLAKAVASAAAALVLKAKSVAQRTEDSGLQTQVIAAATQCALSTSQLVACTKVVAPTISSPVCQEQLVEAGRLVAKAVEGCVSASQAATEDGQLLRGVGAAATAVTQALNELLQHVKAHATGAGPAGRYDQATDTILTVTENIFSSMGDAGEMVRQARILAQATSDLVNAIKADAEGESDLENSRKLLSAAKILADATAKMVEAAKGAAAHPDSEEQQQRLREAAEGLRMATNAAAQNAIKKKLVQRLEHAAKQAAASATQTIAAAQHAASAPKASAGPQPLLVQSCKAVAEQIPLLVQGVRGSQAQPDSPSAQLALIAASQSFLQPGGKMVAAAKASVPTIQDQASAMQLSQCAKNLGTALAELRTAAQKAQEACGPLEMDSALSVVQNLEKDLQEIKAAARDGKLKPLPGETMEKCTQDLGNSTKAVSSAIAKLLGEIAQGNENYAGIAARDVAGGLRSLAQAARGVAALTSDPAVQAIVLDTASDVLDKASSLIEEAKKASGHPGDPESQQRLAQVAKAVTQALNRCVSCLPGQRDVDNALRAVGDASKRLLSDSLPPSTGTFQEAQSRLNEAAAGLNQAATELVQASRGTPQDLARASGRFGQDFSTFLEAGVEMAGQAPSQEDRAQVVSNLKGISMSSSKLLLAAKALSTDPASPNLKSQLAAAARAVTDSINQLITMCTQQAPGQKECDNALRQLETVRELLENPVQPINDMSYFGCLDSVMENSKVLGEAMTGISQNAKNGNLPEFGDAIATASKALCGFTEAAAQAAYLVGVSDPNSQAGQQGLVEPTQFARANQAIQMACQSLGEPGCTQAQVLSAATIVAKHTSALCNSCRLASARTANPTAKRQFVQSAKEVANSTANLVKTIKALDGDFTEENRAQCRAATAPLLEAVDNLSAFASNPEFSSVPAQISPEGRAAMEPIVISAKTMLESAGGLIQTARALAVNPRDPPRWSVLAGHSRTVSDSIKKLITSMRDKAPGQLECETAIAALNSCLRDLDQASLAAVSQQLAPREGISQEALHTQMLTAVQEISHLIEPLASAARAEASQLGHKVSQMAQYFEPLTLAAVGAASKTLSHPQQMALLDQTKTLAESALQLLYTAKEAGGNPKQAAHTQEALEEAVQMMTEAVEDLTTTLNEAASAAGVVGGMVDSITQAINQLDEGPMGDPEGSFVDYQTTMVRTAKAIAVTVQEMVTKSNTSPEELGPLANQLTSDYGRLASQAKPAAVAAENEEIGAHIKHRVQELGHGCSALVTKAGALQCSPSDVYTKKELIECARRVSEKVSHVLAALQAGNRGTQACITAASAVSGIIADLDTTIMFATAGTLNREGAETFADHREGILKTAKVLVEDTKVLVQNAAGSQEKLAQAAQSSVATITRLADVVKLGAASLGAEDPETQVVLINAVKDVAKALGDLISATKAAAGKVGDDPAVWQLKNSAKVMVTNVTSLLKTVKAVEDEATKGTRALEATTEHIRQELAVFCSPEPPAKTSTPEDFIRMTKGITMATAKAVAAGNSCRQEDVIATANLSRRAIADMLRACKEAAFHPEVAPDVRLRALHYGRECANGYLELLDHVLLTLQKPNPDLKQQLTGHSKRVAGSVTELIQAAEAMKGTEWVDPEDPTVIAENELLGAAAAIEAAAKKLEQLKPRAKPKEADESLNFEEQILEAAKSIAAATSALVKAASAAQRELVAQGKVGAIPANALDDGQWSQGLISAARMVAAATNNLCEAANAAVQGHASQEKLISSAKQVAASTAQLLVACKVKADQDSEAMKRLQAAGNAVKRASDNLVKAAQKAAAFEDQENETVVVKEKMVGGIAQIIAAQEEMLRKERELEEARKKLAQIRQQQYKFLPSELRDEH
B1: RAP1A 1-166 (Homo sapiens, UniProt P62834); sequence looked up; chain MREYKLVVLGSGGVGKSALTVQFVQGIFVEKYDPTIEDSYRKQVEVDCQQCMLEILDTAGTEQFTAMRDLYMKNGQGFALVYSITAQSTFNDLQDLREQILRVKDTEDVPMILVGNKCDLEDERVVGKEQGQNLARQWCNCAFLESSAKSKINVNEIFYDLVRQIN
B2: PUX5 301-421 R353A (Arabidopsis thaliana, UniProt Q7Y175); chain KNPFQGVGRTLGASGSGSSSAPQASSAPMNVAPAPSRGLVVDPAAPTTSIQLALADGTRLVSRFNNHHTVRDVRGFIDASRPGGSKEYQLLTMGFPPKQLTELDQTIEQAGIANAVVIQKF
B3: CFH 1108-1231 R1203S (Homo sapiens, UniProt P08603); sequence looked up; chain KCGPPPPIDNGDITSFPLSVYAPASSVEYQCQNLYQLEGNKRITCRNGQWSEPPKCLHPCVISREIMENYNIALRWTAKQKLYSRTGESVEFVCKSGYRLSSRSHTLRTTCWDGKLEYPTCAKR
B4: FIBH residues 1259-1853 (Bombyx mori); N-terminal Alexa Fluor 488; chain GAGAGSGAGAGSGAGAGSGAGAGSGAGYGAGVGAGYGAGYGAGAGAGYGAGAGSGAGSGAGAGSGAGAGSGAGAGSGAGAGSGAGAGSGAGAGSGAGAGSGAGAGSGAGAGYGAGYGAGAGAGYGAGAGSGAGSGAGAGSGAGAGSGAGAGSGAGAGSGAGAGSGAGAGSGAGAGSGAGAGYGAGVGAGYGAGYGAGAGAGYGAGAGSGAGSGAGAGSGAGAGSGAGAGSGAGVGSGAGAGSGAGAGSGAGAGSGAGAGYGAGYGAGAGAGYGAGAGSGAGSGAGAGSGAGAGSGAGAGSGAGAGSGAGAGSGAGAGSGAGAGSGAGVGYGAGVGAGYGAGYGAGAGAGYGAGAGSGAAS
B5: CFH domains 1108-1231 R1182S (Homo sapiens, UniProt P08603); sequence looked up; chain KCGPPPPIDNGDITSFPLSVYAPASSVEYQCQNLYQLEGNKRITCRNGQWSEPPKCLHPCVISREIMENYNIALSWTAKQKLYSRTGESVEFVCKRGYRLSSRSHTLRTTCWDGKLEYPTCAKR
B6: IL23R 24-355 (Homo sapiens, UniProt Q5VWK5); sequence looked up; chain GITNINCSGHIWVEPATIFKMGMNISIYCQAAIKNCQPRKLHFYKNGIKERFQITRINKTTARLWYKNFLEPHASMYCTAECPKHFQETLICGKDISSGYPPDIPDEVTCVIYEYSGNMTCTWNAGKLTYIDTKYVVHVKSLETEEEQQYLTSSYINISTDSLQGGKKYLVWVQAANALGMEESKQLQIHLDDIVIPSAAVISRAETINATVPKTIIYWDSQTTIEKVSCEMRYKATTNQTWNVKEFDTNFTYVQQSEFYLEPNIKYVFQVRCQETGKRYWQPWSSLFFHKTPETVPQVTSKAFQHDTWNSGLTVASISTGHLTSDNRGDIG
B7: BRAF kinase 448-723 K723G/P722S/S720E/L716E/S713E/Q709R/L706S/A688R/Y673S/F667Y/K630S/V600E/L588N/Q562R (Homo sapiens, UniProt P15056); sequence looked up; chain DDWEIPDGQITVGQRIGSGSFGTVYKGKWHGDVAVKMLNVTAPTPQQLQAFKNEVGVLRKTRHVNILLFMGYSTKPQLAIVTQWCEGSSLYHHLHASETKFEMKKLIDIARQTARGMDYLHAKSIIHRDLKSNNIFLHEDNTVKIGDFGLATEKSRWSGSHQFEQLSGSILWMAPEVIRMQDSNPYSFQSDVYAFGIVLYELMTGQLPYSNINNRDQIIYMVGRGSLSPDLSKVRSNCPKRMKRLMAECLKKKRDERPSFPRILAEIEELARELSG
B8: PLXND1 1553-1678 S1614V/T1615A (Homo sapiens, UniProt Q9Y4D7); chain AKPRNLNVSFQGCGMDSLSVRAMDTDTLTQVKEKILEAFCKNVPYSQWPRAEDVDLEWFASVAQSYILRDLDDTSVVEDGRKKLNTLAHYKIPEGASLAMSLIDKKDNTLGRVKDLDTEKYFHLVL
B9: CD112 D1 domain 32-160 (human, UniProt Q92692); sequence looked up; chain QDVRVQVLPEVRGQLGGTVELPCHLLPPVPGLYISLVTWQRPDAPANHQNVAAFHPKMGPSFPSPKPGSERLSFVSAKQSTGQDTEAELQDATLALHGLTVEDEGNYTCEFATFPKGSVRGMTWLRVIA
B10: NR3C1 98-420 (Homo sapiens, UniProt P04150); pyrene label; chain MGNDLGFPQQGQISLSSGETDLKLLEESIANLNRSTSVPENPKSSASTAVSAAPTEKEFPKTHSDVSSEQQHLKGQTGTNGGNVKLYTTDQSTFDILQDLEFSSGSPGKETNESPWRSDLLIDENCLLSPLAGEDDSFLLEGNSNEDCKPLILPDTKPKIKDNGDLVLSSPSNVTLPQVKTEKEDFIELCTPGVIKQEKLGTVYCQASFPGANIIGNKMSAISVHGVSTSGGQMYHYDMNTASLSQQQDQKPIFNVIPPIPVGSENWNRCQGSGDDNLTSLGTLNFPGRTVFSNGYSSPSMRPDVSSPPSSSSTATTGPPPKL
B11: TEPSIN R226A/E227A/D230A/E233A/R234A/E236A (Homo sapiens, UniProt Q96N21); chain MAAAPPLRDRLSFLHRLPILLKGTSDDDVPCPGYLFEEIAKISHESPGSSQCLLEYLLSRLHSSSGHGKLKVLKILLYLCSHGSSFFLLILKRNSAFIQEAAAFAGPPDPLHGNSLYQKVRAAAQDLGSTLFSDTVLPLAPSQPLGTPPATGMGSQARPHSTLQGFGYSKEHGRTAVRHQPGQAGGGWDELDSGPSSQNSSQNSDLSRVSDSGSHSGSDSHSGASAAPGALAAAVAVVALSDCQQELSLVRTVTRGPRAFLSREEAQHFIKACGLLNCEAVLQLLTCHLRGTSECTQLRALCAIASLGSSDLLPQEHILLRTRPWLQELSMGSPGPVTNKATKILRHFEASCGQLSPARGTSAEPGPTAALPGPSDLLTDAVPLPGSQVFLQPLSSTPVSSRSPAPSSGMPSSPVPTPPPDASPIPAPGDPSEAEARLAESRRWRPERIPGGTDSPKRGPSSCAWSRDSLFAGMELVACPRLVGAGAAAGESCPDAPRAPQTSSQRTAAKEPPGSEPSAFAFLNA
B12: Cacna1c 1647-1777 (Mus musculus, UniProt Q01815); sequence looked up; chain NALSLQAGLRTLHDIGPEIRRAISGDLTAEEELDKAMKEAVSAASEDDIFRRAGGLFGNHVTYYQSDSRGNFPQTFATQRPLHINKTGNNQADTESPSHEKLVDSTFTPSSYSSTGSNANINNANNTALGR
Chain of UniProt P01024 (whole entry, looked up): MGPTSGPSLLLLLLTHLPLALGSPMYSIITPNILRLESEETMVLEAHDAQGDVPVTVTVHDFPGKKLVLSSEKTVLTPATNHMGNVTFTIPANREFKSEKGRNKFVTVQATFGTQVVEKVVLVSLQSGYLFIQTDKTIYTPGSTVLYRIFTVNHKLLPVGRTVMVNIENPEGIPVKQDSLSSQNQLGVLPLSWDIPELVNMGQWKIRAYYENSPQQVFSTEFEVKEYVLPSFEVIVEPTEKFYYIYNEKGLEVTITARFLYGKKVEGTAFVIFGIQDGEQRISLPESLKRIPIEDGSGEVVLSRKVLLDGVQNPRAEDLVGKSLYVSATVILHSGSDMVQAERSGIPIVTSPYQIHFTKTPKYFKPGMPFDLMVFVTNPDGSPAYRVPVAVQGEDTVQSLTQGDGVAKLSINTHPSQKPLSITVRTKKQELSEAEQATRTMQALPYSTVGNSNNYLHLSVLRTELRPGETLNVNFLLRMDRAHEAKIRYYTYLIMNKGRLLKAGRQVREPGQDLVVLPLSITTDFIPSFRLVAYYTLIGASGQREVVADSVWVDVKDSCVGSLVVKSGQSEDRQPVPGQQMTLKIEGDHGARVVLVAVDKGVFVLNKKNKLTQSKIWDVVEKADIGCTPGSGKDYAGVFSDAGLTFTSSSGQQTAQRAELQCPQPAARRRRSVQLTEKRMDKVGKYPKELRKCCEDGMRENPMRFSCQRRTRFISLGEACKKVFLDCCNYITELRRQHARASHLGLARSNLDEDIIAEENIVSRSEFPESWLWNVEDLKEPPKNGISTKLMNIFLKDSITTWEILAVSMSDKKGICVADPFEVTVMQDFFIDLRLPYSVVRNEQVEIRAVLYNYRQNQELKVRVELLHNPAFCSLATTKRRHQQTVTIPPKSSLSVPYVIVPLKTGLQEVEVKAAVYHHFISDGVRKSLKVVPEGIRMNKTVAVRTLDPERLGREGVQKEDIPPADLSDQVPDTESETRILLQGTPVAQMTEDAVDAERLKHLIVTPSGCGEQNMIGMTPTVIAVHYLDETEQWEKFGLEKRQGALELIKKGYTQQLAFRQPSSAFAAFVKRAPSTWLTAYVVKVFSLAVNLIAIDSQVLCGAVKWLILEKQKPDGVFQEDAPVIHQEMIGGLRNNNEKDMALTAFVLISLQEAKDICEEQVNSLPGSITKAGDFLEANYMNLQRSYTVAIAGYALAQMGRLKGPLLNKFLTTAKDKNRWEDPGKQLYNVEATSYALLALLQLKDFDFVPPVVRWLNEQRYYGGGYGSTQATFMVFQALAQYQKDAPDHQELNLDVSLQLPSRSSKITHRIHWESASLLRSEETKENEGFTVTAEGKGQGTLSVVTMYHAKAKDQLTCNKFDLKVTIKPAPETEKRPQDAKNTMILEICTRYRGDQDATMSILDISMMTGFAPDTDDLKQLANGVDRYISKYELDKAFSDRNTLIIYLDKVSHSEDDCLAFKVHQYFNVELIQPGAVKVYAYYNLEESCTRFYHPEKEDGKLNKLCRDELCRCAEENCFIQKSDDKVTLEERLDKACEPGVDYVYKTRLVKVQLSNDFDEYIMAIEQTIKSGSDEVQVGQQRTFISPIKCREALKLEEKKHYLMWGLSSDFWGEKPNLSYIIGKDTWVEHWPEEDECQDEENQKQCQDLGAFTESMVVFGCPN
Chain of UniProt Q92785 (whole entry, looked up): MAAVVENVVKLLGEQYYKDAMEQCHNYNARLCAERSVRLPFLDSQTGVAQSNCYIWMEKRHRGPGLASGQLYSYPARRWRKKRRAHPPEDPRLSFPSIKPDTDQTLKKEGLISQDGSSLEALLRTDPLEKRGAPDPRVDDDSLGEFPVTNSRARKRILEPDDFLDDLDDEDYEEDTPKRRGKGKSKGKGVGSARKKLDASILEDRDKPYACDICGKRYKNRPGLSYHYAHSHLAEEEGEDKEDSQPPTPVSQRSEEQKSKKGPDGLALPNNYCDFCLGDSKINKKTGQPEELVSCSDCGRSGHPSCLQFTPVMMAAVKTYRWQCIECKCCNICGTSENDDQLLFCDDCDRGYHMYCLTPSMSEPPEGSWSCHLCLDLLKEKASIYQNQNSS
Chain of UniProt Q9NZQ7 (whole entry, looked up): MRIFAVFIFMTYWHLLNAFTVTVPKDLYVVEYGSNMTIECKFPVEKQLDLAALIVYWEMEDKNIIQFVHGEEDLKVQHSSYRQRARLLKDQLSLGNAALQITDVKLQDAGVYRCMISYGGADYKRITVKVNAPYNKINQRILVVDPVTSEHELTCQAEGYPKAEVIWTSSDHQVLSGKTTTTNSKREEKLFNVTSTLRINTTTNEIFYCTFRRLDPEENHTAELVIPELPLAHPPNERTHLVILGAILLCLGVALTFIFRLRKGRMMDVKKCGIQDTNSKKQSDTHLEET
Chain of UniProt Q92730 (whole entry, looked up): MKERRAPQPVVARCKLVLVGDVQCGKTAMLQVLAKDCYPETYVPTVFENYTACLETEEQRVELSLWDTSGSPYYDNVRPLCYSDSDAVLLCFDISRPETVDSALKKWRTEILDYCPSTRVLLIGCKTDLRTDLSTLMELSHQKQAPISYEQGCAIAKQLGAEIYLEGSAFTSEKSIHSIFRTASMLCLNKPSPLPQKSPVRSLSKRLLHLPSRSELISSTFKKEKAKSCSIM

With `B1 (RAP1A 1-166)` the Kd was 89 ± 6 µM (PREX1 (Homo sapiens, UniProt Q8TCU6); fluorescence titration; together with: mant-GDP 1 µM).
The Kd of `histone H3 peptide fragment, K14 lactyl-lysine` is reported as 0.6 µM (DPF2 270-391 (Homo sapiens, UniProt Q92785); ITC).
With `B2 (PUX5 301-421 R353A)` the Kd was 4.4 ± 0.4 µM (CDC48A 1-463 (Arabidopsis thaliana, UniProt P54609); ITC; 25 °C).
With `KLLMIIHDRREFAKFEKEKMNAKWDTGENPIYKSPVTTVVNPKYEGK (ITGB1 752-798 A786P (Homo sapiens, UniProt P05556-1); sequence looked up)` the Kd was 243 µM (Tln1; NMR titration).
For `B3 (CFH 1108-1231 R1203S)`, the Kd was 11.5 ± 0.3 µM (C3 C3dg 955-1303 (Homo sapiens, UniProt P01024); SPR).
`B4 (FIBH residues 1259-1853)` gave a Kd of 1.12 ± 0.0162 µM (ELN (Homo sapiens, UniProt P15502); FCS).
`B5 (CFH domains 1108-1231 R1182S)` has a Kd of 13.8 ± 0.4 µM (C3 996-1303 (Homo sapiens, UniProt P01024); SPR).
`B6 (IL23R 24-355)` gave a Kd of 0.0108 µM and 0.0052 µM (IL23A/IL12B mature heterodimer, glycosylated (Homo sapiens); SPR; Fc fusion).
With `GEYSSDFLTPEFVKFSMDLTNTEITATTSLPSFSTFMDNY (NR4A2 28-67 (Homo sapiens, UniProt P43354); sequence looked up)` the Kd was 10.9 µM (Ncoa1 260-369 (Mus musculus, UniProt P70365); ITC; peptide).
`ACVLMLRRCRILGWCCSG (MP5.6; two disulfides)` has a Kd of 0.0015 µM (chymotrypsin alpha (Bos taurus, UniProt P00766); flow cytometry; peptide).
`TPTPSARRTIGPRAPKSKTTY (Cdc12 residues 20-40 (Schizosaccharomyces pombe))` has a Kd of 5 µM (cdc15 19-312 E30K/E152K (Schizosaccharomyces pombe, UniProt Q09822); ITC; peptide).
For `B7`, the Kd was 0.0186 ± 0.0007 µM (MAP2K1 (Homo sapiens, UniProt Q02750); BLI).
`WHRSYYTWNLAG (TR3-LAG peptide; Fam label)` gave a Kd of 0.274 µM (CD274 (Homo sapiens, UniProt Q9NZQ7); flow cytometry; peptide, MDA-MB-231; apparent, on cells).
With `CDH2 EC3-EC5 (Homo sapiens)` the Kd was 0.0787 µM (FGB residues 15-66, dimer (Homo sapiens); ELISA).
`EPHA7 soluble recombinant (Homo sapiens)` has a Kd of 0.564 µM (LILRB5 24-458 (Homo sapiens, UniProt O75023); BLI).
`WDCLDNRIGRRQCVKL (DR5-targeting peptide; cyclic, disulfide, Cy5 label, PEG2 linker)` gave a Kd of 1.62 µM (TNFRSF10B (Homo sapiens, UniProt O14763); flow cytometry; peptide, COLO205).
The Kd of `SCN2A fragment Q1913A (Homo sapiens) (sequence not shown)` is reported as 0.612 µM (CALM1 (Homo sapiens, UniProt P0DP23); fluorescence titration; together with: CaCl2).
`GSGAGIESNV`: “normalised SPR binding response” 5.8 normalised RU (human MAGI1-3/6 PDZ construct (MBP fusion); surface plasmon resonance; peptide; concentration not given; higher = stronger binding).
With `B8 (PLXND1 1553-1678 S1614V/T1615A)` the Kd was 4.78 ± 0.08 µM (RND1 5-200 (Homo sapiens, UniProt Q92730); SPR).
With `GRGRGRGRGRGRGRGRGRGRGRGRGRGRGRGRGRGRGRGR ((GR)20 20 repeats; TAMRA label N-terminal)` the Kd was 0.0523 ± 0.0139 µM (FUS 1-214 (Homo sapiens, UniProt P35637); fluorescence polarisation; peptide).
`colistin` gave an MIC of 1 µg/mL (Klebsiella oxytoca; broth microdilution; clinical isolate RKI 609/16).
For `B9 (CD112 D1 domain 32-160)`, the Kd was 0.158 µM (PVRIG/Fc Fc fusion (Homo sapiens); BLI).
`GCVRLHESCLGQQVPCCDPAATCYCEGRGDRDMKCYCR (designed binder)` has a Kd of 0.016 µM (ITGAV/ITGB3 K562 cells; flow cytometry; designed binder, U87MG).
`B10 (NR3C1 98-420)` has a Kd of 20 µM (TSG101 229-304 coiled coil, pyrene label (Homo sapiens, UniProt Q99816); fluorescence anisotropy).
`B11` gave a Kd of 5.14 µM and 5.13 µM and 4.22 µM and 6.07 µM (MAP1LC3B fragment (Homo sapiens); BLI).
`KLLMIIHDRREFAKFEKEKMNAKWDTGNNPIYKSAVTTVVNPKYEGK (ITGB1 752-798 E779N (Homo sapiens, UniProt P05556-1); sequence looked up)` gave a Kd of 767 µM (Tln1; NMR titration).
With `B12 (Cacna1c 1647-1777)` the Kd was 11.7 µM (Jph2 1-440 S165L (Mus musculus, UniProt Q9ET78); ITC).
`NPDALPETLV`: “normalised SPR binding response” 8.3 normalised RU (human SCRIB PDZ3-4 tandem (MBP fusion); surface plasmon resonance; peptide; concentration not given; higher = stronger binding).
